Experimental data gathered from unrelated publications.
± gives the spread as reported.
UniProt P11712, sequence (whole entry, looked up): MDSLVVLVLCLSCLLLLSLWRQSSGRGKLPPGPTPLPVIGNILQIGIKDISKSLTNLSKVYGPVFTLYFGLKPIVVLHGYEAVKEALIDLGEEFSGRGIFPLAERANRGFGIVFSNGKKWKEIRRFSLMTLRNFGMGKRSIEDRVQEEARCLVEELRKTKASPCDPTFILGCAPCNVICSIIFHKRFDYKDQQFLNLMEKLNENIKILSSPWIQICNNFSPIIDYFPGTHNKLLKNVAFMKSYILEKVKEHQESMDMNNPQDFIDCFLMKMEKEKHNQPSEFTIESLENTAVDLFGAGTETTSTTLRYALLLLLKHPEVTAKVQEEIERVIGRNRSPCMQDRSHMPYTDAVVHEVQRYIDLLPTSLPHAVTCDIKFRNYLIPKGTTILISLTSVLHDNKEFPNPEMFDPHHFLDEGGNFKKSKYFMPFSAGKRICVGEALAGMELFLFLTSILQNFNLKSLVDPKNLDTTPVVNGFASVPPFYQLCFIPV

[64Cu+2].c1cnc(CNCc2ccc(CN3CCCN4CCNCCCN(CC4)CC3)cc2)nc1  tissue uptake (CXCR4; NOD/SCID mouse, U87 and U87-stb-CXCR4 xenografts, spleen; iv, 30 min, ex vivo): 15.1 ± 0.92 %ID/g
CCCC[C@H](NC(=O)[C@H](Cc1ccccc1)NC(=O)[C@H](Cc1c[nH]cn1)NC(=O)CCNC(=O)[C@@H](NC(=O)[C@H](C)NC(=O)[C@H](Cc1c[nH]c2ccccc12)NC(=O)[C@H](CCC(N)=O)NC(=O)[C@H](N)Cc1ccc(O)cc1)C(C)C)C(N)=O  cell growth (Balb/3T3; MTT; 10 nM, 16 h): 90 ± 5%
COc1ccc([C@@H]2CC(=O)c3c(O)cc(O[C@@H]4O[C@H](CO[C@@H]5O[C@@H](C)[C@H](O)[C@@H](O)[C@H]5O)[C@@H](O)[C@H](O)[C@H]4O)cc3O2)cc1O  cell count (MRC5; trypan blue exclusion; 150 µg/mL, 72 h): 17900 ± 508
[64Cu+2].c1ccc(CNCc2ccc(CN3CCCN4CCNCCCN(CC4)CC3)cc2)nc1  tissue uptake (CXCR4; NOD/SCID mouse, U87 and U87-stb-CXCR4 xenografts, pancreas; iv, 90 min, ex vivo): 1.27 ± 0.28 %ID/g
CC/C=C\C/C=C\C/C=C\C/C=C\C/C=C\C/C=C\CCC(=O)Nc1ccn(C2OC(CO)C(O)C2(F)F)c(=O)n1 (stereo not shown)  TGI (SK-MEL-5; NCI60 screen): 17.1 µM
N=C(N/N=C/c1ncc[nH]1)N/N=C/c1ncc[nH]1  selectivity ratio (PANC-1; crystal violet; 72 h; relative to: IC50 hTERT-HPNE over IC50 PANC-1): 26.6
CC[C@H]1[C@@H](O)[C@@H]2[C@H](CC[C@]3(C)[C@@H]([C@H](C)CCOS(=O)(=O)[O-])CC[C@@H]23)[C@@]2(C)CC[C@@H](O)C[C@@H]12.[Na+]  inflammation score (histology; ob/ob NASH mouse model, liver; oral, 10 mg/kg once daily, before treatment, baseline of 8 week study, scale 0 to 3; direction not given): 3
[Cl-].[Cl][Ru-]1[S+]=C(N2CCCC2)N[N+]1=Cc1ccc(N(c2ccccc2)c2ccccc2)cc1.c1ccccc1  colony formation (HeLa S3; 5 µM, 24 h, then 10 days growth): inhibited
COc1cc(CNC(=O)C[C@H](C)CCC=C(C)C)ccc1OCc1cn(-c2cccc([N+](=O)[O-])c2)nn1  growth percent (NCI-H23; SRB; 10 µM, 48 h): 66.5%
CCC(=C(c1ccc(Cl)cc1)c1ccc(OCCCN(C)C)cc1)c1ccc(OC)cc1  alkaline phosphatase activity (Ishikawa; 10 µM, 72 h, unit not given; relative to: DMSO): 0.04 ± 0.07
C=CC(=O)Nc1cc(Nc2nccc(-c3cn(C)c4ccccc34)n2)c(OCC(F)(F)F)nc1N(C)CCN(C)C  activity vs control (Cytochrome P450 2C9 (CYP2C9, Homo sapiens, UniProt P11712); enzyme activity, inhibitor; human, liver microsomes; 10 µM): 100%
COc1cc(CNC(=O)C[C@H](C)CCC=C(C)C)ccc1OCc1cn(-c2ccc(F)cc2)nn1  growth percent (HOP-92; SRB; 10 µM, 48 h): 55.6%
COc1ccc(NC(=O)N2CCCN3CCC(c4ccc(C#Cc5cccc(C)c5)cc4)C3C2)cc1 (stereo not shown)  EC90 (Toxoplasma gondii; parasite growth; HFF, RH type I luciferase): 5.6 µM
COc1cc(CN2CCN(c3cccc(Cl)c3)CC2)c2cc3[n+](cc2c1O)CCc1cc2c(cc1-3)OCO2  therapeutic index (Ca-Ski and MDCK; SRB; 48 h; relative to: CC50 MDCK over IC50 Ca-Ski): 29.4
CCC12CCc3c(c4ccccc4n3C)CCN(CC3OC31)C2 (stereo not shown)  AKT phosphorylation (BV-2; western blot; 25 µM, with: LPS; relative to: LPS alone): ~54.4%
C/C=C/C[C@@H](C)[C@@H](O)[C@H]1C(=O)N[C@@H](CC)C(=O)N(C)C(Cc2ccc(C(=O)NCCOCCNC(=O)CC[P+](c3ccccc3)(c3ccccc3)c3ccccc3)cc2)C(=O)N(C)[C@@H](CC(C)C)C(=O)N[C@@H](C(C)C)C(=O)N(C)[C@@H](CC(C)C)C(=O)N[C@@H](C)C(=O)N[C@H](C)C(=O)N(C)[C@@H](CC(C)C)C(=O)N(C)[C@@H](CC(C)C)C(=O)N(C)[C@@H](C(C)C)C(=O)N1C (stereo partly shown)  concentration of maximal cytoprotection (rat cardiomyocytes; reoxygenation-induced necrosis; 3 h reoxygenation): 3 to 15 nM
COc1cc(CNC(=O)C[C@H](C)CCC=C(C)C)ccc1OCc1cn(-c2ccc(Br)cc2)nn1  growth percent (HOP-92; SRB; 10 µM, 48 h): 45.9%
O=C(NC1CC1)N1CCCN2CCC(c3ccc(C#Cc4ccccc4)cc3)C2C1 (stereo not shown)  EC90 (Toxoplasma gondii; parasite growth; HFF, RH type I luciferase): 4.78 µM
CC(=O)OC[C@H]1O[C@@H](Sc2sc(C(=O)c3ccc(Br)cc3)c(N)c2-c2nc3ccccc3s2)[C@H](OC(C)=O)[C@@H](OC(C)=O)[C@H]1OC(C)=O  growth (NCI-H322M; SRB; 10 µM, 48 h; relative to: untreated): 91.8%
COc1cc(CNC(=O)C[C@H](C)CCC=C(C)C)ccc1OCc1cn(-c2cccc(C(F)(F)F)c2)nn1  growth percent (CAKI-1; SRB; 10 µM, 48 h): 73.6%
Cc1cc(C)cc(/C=N/NC(=N)N/N=C/c2cc(C)cc(C)c2)c1  selectivity ratio (PANC-1; crystal violet; 72 h; relative to: IC50 IMR-90 over IC50 PANC-1): 3.4
COC(=O)c1cnc(-c2cnccn2)cc1C(=O)OC.COC(=O)c1cnc(-c2cnccn2)cc1C(=O)OC.F[P-](F)(F)(F)(F)F.[Ag+]  Stern-Volmer constant (calf thymus DNA; ethidium bromide displacement; pH 7.4): 1500 ± 10 M⁻¹
O=Cc1c(O)ccc2ccccc12  mRNA level (hCMEC/D3; qPCR, refers to: KLF2; 50 µM, 4 h; relative to: control): ~1.5 fold
C=CC(=O)Oc1ccc(Cl)cc1C(=O)Nc1ccc([N+](=O)[O-])cc1Cl  cell growth (DU-145 (AR-negative); concentration not given, 3 days, dose-dependent): decreased
COc1ccc(C(=O)n2c(C)c(Cc3ccccc3O[C@@H](C)C(=O)O)c3cc(OC(F)(F)F)ccc32)cc1  mRNA level (3T3-L1 preadipocytes; qRT-PCR, refers to: adiponectin; concentration not given): increased
Cc1cc(O)c(C=O)c2c1C(=O)Oc1c(CO)c(O)c3c(c1O2)C(O)OC3=O (stereo not shown)  FSH level (streptozotocin-diabetic male albino rats, serum; dose not given, 9 weeks; relative to: diabetic control): increased
COc1cc(CNC(=O)C[C@H](C)CCC=C(C)C)ccc1O  growth percent (SK-OV-3 ovarian cancer cells; SRB; 10 µM, 48 h): 97.8%
O=C(N[C@@H](CC1CCCCC1)C(=O)N[C@@H](C[C@H]1CCNC1=O)C(=O)C(=O)NC1CC1)OCc1cccc(Cl)c1  EC50 (human rhinovirus 1B; viral replication; WI-38; 37 °C): 0.08 ± 0.01 µM
